Measurements pooled from the literature.
Each numbered part is a random draw from the data of one study; scales do not carry over between parts.

Block 1
Cell line: HEK-293T
Read-out: pseudovirus infection
Method: FDA-approved drug library screen
Organism: VSV pseudotyped with SARS-CoV-2 spike
Concentration: 10 µM
Time: 16 h
Relative to: vehicle-treated
SMILES | GFP-positive cells [%]
CC(=O)OCC(=O)[C@@]1(O)CC[C@H]2[C@@H]3CCC4=CC(=O)CC[C@]4(C)[C@H]3C(=O)C[C@@]21C | 101
COC(=O)/C=C/C(=O)OC | 108
Clc1ccc(C(Cn2ccnc2)OCc2csc3c(Cl)cccc23)c(Cl)c1 (stereo not drawn) | 101

Block 2
Target: Replicase polyprotein 1ab, nsp13 helicase (rep, Severe acute respiratory syndrome coronavirus 2, UniProt P0DTD1)
Mode: inhibitor
Concentration: 20 µM
SMILES | inhibition [%]
CN1CC(=O)N=C1NC(=O)Nc1cccc(Cl)c1 | -5.99
O=P(O)(O)C(O)(Cc1cccnc1)P(=O)(O)O | 1.75
Nc1ccn([C@H]2C[C@H](O)[C@@H](CO)O2)c(=O)n1 | 2.12
C[C@]12C[C@H](O)[C@H]3[C@@H](CCC4=CC(=O)CC[C@@]43C)[C@@H]1CC[C@@H]2C(=O)CO | 1.46
C[C@@H](O)[C@H]1C(=O)N2C(C(=O)O)=C(SCCNC=N)C[C@H]12 | -0.48
COc1ccc(C(Cl)=C(c2ccc(OC)cc2)c2ccc(OC)cc2)cc1 | 0.67
O=C(O)c1cn(C2CC2)c2cc(N3CCNCC3)c(F)cc2c1=O | 2.73
CN(C)CCCNC(=O)c1ccc(-c2cc(O)c3ncccc3c2)cc1 | 5.99
Cc1cc(C)c(NC(=O)C2CC3CCC2C3)c(C)c1 (stereo not drawn) | 0.09
COc1cccc(-c2cc(=O)c3ccccc3o2)c1N | -2.66
CC(C)NCC(O)c1ccc(N)c(C#N)c1 (stereo not drawn) | 4.62
Nc1nc(/C(=C/CC(=O)O)C(=O)N[C@@H]2C(=O)N3C(C(=O)O)=CCS[C@H]23)cs1 | 1.51
COc1cc([C@@H]2c3cc4c(cc3[C@@H](O[C@@H]3O[C@@H]5CO[C@@H](c6cccs6)O[C@H]5[C@H](O)[C@H]3O)[C@H]3COC(=O)[C@H]23)OCO4)cc(OC)c1O | -0.24
CN(C)CC/C=C1\c2ccccc2CSc2ccccc21 | 4.37
C[C@]12CCC(=O)C=C1CC[C@@H]1[C@@H]2[C@@H](O)C[C@]2(C)C(=O)CC[C@@H]12 | 4.49

Block 3
Target: Phosphate system positive regulatory protein PHO4, full length, GST-tagged (PHO4, Saccharomyces cerevisiae, UniProt P07270, residues 1-312)
Method: competition protein-binding microarray
Form: double-stranded DNA, one strand shown
Medium: in vitro
Concentration: 2 µM
Setting: whole 60-bp probe, lowest competitor level
Added: Cbf1 competitor, 0.05 µM
Direction: higher = stronger binding
All sequences stand within: … GTCTTGATTCGCTTGACGCTGCTG
Target sequence (chain): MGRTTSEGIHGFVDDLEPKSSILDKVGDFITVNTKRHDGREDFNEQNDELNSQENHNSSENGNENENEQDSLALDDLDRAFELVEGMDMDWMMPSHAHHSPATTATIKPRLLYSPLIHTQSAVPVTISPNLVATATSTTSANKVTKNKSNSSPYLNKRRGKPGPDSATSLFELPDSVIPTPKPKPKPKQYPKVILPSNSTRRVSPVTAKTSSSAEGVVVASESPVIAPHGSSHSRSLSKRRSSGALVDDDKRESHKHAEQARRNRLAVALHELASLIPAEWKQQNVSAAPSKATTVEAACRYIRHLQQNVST
Strand | fluorescence intensity [a.u.]
TCGATATATAGAAAGCACGATTGCCCAGGAGTTATG | 6590
CATACCCAACCTTGAACAGTGGGTGAAGATATTTGT | 3650
TGGAACAGCAATGCCACCGTGATGGTCCTTGACCAG | 5010
GCCCGCCGGCGACGTCACGCGGCCGTTACGGCGCTC | 5380
GGAAACGACTGCGAACACGTGCAGATGCAAAGGACA | 15100
CTTCTGTAAATTTGTCTGGTGGGTGGACGCGCCCCG | 4470
ACACAGAGCGGCTGAAGCGTGATGGATGCCCAGGTA | 5570
AAAGCGGTAATTTGAGATGTGGGTGCAGATATCTAT | 4530

Block 4
Target: Replicase polyprotein 1ab, main protease (rep, Severe acute respiratory syndrome coronavirus 2, UniProt P0DTD1)
Read-out: enzyme activity
Mode: inhibitor
Setting: without DTT
SMILES | IC50
CC(C)(C)c1ccc(S(=O)(=O)/C=C/C#N)cc1 | 0.8 µM
C/C=C1/[C@H](O[C@@H]2O[C@H](CO)[C@@H](O)[C@H](O)[C@H]2O)OC=C(C(=O)OC)[C@H]1CC(=O)OCCc1ccc(O)c(O)c1 | 3.4 µM
Oc1ccc(C2CNCCc3c2cc(O)c(O)c3Cl)cc1 (stereo not drawn) | > 20 µM
O=C(O)c1c(Cl)c(Cl)c(Cl)c(Cl)c1-c1c2cc(I)c(=O)c(I)c-2oc2c(I)c(O)c(I)cc12 | > 20 µM

Some of these lines once more (block 2):
SMILES | inhibition [%]
C[C@]12C[C@H](O)[C@H]3[C@@H](CCC4=CC(=O)CC[C@@]43C)[C@@H]1CC[C@@H]2C(=O)CO | 1.46
C[C@@H](O)[C@H]1C(=O)N2C(C(=O)O)=C(SCCNC=N)C[C@H]12 | -0.48
